Measured values pooled from the literature.
Protocols differ between the studies behind these lines. ± gives the spread as reported.
Cell line: MCF7

For [O-][n+]1nc(NCCCCCCCCNc2n[n+]([O-])c3ccccc3[n+]2[O-])nc2ccccc21, the IC50 was greater than 30 µM (cytotoxicity, MTT; 24 h, normoxia).
For Brc1cccc(SSc2cccc(Br)c2)c1, the IC50 was greater than 10 µM (cell growth or viability, SRB).
The IC50 of COc1cc(-c2cc(-c3ccc(Cl)cc3)n(CN3CCOCC3)c(=O)c2C#N)ccc1O is reported as no less than 50 µM (cell growth or viability, MTT).
The IC50 of [O-][n+]1nc(NCCCCNc2n[n+]([O-])c3ccccc3[n+]2[O-])nc2ccccc21 is reported as greater than 30 µM (cytotoxicity, MTT; 24 h, normoxia).
For C=C(C)[C@@H]1CC[C@]2(C(=O)OCCOCCOCC[P+](c3ccccc3)(c3ccccc3)c3ccccc3)CC[C@]3(C)[C@H](CC[C@@H]4[C@@]5(C)CC[C@H](O)C(C)(C)[C@@H]5CC[C@]43C)[C@@H]12, the IC50 was 0.7 to 0.74 µM (cell growth or viability, MTT).
With N#CC(C(=O)Nc1nnc(NC(=O)c2ccccc2)s1)=C1Oc2cccnc2O1 the IC50 was 36.8 µM (cell growth or viability, MTT; 48 h).
The IC50 of CCC(O)CC(=O)O[C@@H]1C[C@@H]2[C@@]3(C)CCC[C@](C)(CC)[C@@H]3CC[C@@]2(C)[C@@H]2C[C@@H](O)C3=C(C(=O)O[C@@H]3C)[C@@]12C (stereo partly shown) is reported as no more than 25 µM (cell growth or viability, CCK-8; 24 h).
With CC(C)(C)c1ccc(CN2CCN(C(c3ccccc3)c3ccc(Cl)cc3)CC2)cc1 (stereo not shown) the IC50 was 31 µM (cell growth; 72 h).
With CCN1CCC2(CC1)C/C(=N\N=C\c1ccc(N(C)C)cc1)c1ccccc1O2 the IC50 was 80 µM (cell growth or viability, MTT; 48 h).
CC(=O)c1nn(-c2ccc(Cl)cc2[N+](=O)[O-])/c(=N/N=C(\C)c2ccc(NC(=O)c3cccnc3)cc2)s1 gave an IC50 of 10.4 ± 0.8 µM (cytotoxicity, MTT; 24 h).
N#CC(=Cc1cccs1)C(=O)Nc1nnc(NC(=O)c2ccccc2)s1 has an IC50 of 8.02 µM (cell growth or viability, MTT; 48 h).
For O=S(=O)(Sc1ccc(Br)cc1)c1ccc(Br)cc1, the IC50 was greater than 10 µM (cell growth, sulforhodamine B).
CC1=CC(=O)C(C(C)C)=CC1=O gave an IC50 of 23 µM (cell growth or viability, MTT; 72 h).
With COc1ccc(-n2c(SCC(=O)NNC(=O)Nc3ccc(C(F)(F)F)cc3Cl)nc3ccccc3c2=O)cc1 the IC50 was 61.9 µM (cell growth or viability, MTT).
Nc1n[n+]([O-])c2ccccc2[n+]1[O-] has an IC50 of 326 ± 10.8 µM (cytotoxicity, MTT; 24 h, normoxia).
CC(=O)O[C@H]1C(=O)O[C@@H]2C[C@H]3C(C)=CC(=O)[C@@H](O)[C@]3(C)[C@H]3[C@]4(O)OC[C@]32[C@@H]1[C@@H](C)[C@H]4O has an IC50 of 11 ± 1.13 µM (cell viability, MTS; 24 h).
C=CCc1ccc(O)c(-c2ccc(O)c(CC=C)c2)c1 has an IC50 of 12.6 µM (cell proliferation, MTS; 24 h, with: temozolomide 250 µM).
N#CC(C#N)=C1Sc2nc3ccc(S(=O)(=O)N4CCCC4)cc3nc2S1 gave an IC50 of 79.4 ± 4.1 µM (cell growth; 24 h).
With [O-][n+]1nc(NCCCNc2n[n+]([O-])c3ccccc3[n+]2[O-])nc2ccccc21 the IC50 was 68.3 µM (cytotoxicity, MTT; 24 h, normoxia).
COc1cc(-c2cc(-c3ccc(Cl)cc3)n(CN(C)C)c(=O)c2C#N)ccc1O has an IC50 of 2.14 µM (cell growth or viability, MTT).
The IC50 of Cc1nc2ccccc2nc1SCC(=O)Nc1ccc(C(=O)Nc2ccc(O)cc2)cc1 is reported as 62.2 µM (cell growth or viability, MTT).
The IC50 of O=C(CSc1nc2ccccc2c(=O)n1-c1ccc(Cl)cc1)NNC(=O)NCc1ccccc1 is reported as 68.1 µM (cell growth or viability, MTT).
The IC50 of O=S(=O)(Sc1ccccc1F)c1ccccc1F is reported as greater than 10 µM (cell growth, sulforhodamine B).
Cc1ccc(-n2c(SCC(=O)NNC(=O)Nc3c(C)cccc3C)nc3ccccc3c2=O)cc1 has an IC50 of 25.2 µM (cell growth or viability, MTT).
For O=C(c1ccc2ccccc2c1)c1cn(-c2ccccc2)nc1C1=Nn2cnnc2SC1, the IC50 was 6.24 µM (cell growth or viability, MTT; 48 h).
N#CC(C(=O)Nc1nnc(NC(=O)c2ccccc2)s1)=C1SC(=O)CN1c1ccccc1 gave an IC50 of 84.8 µM (cell growth or viability, MTT; 48 h).
The IC50 of Cc1c(N)nc([C@H](CC(N)=O)NC[C@H](N)C(N)=O)nc1C(=O)N[C@H](C(=O)N[C@H](C)[C@@H](O)[C@H](C)C(=O)N[C@H](C(=O)NCCC1=N[C@@H](c2nc(C(=O)NCCCCN=C(N)N)cs2)CS1)[C@@H](C)O)[C@@H](O[C@@H]1O[C@@H](CO)[C@@H](O)[C@H](O)[C@@H]1O[C@H]1O[C@H](CO)[C@@H](O)[C@H](OC(N)=O)[C@@H]1O)c1cnc[nH]1 is reported as 4.17 µg/mL (cell growth or viability, resazurin; 96 h).
CCCCCCNC(=O)n1cc(F)c(=O)[nH]c1=O gave an IC50 of 230 µM (cell growth or viability, MTT; 72 h).
For Nc1nnc(NC(=O)c2ccccc2)s1, the IC50 was 12.4 µM (cell growth or viability, MTT; 48 h).
For CCOC(=O)C(C#N)=C1Sc2nc3ccc(S(=O)(=O)N4CCCC4)cc3nc2S1, the IC50 was 74.5 ± 3.9 µM (cell growth; 24 h).
The IC50 of C=CCc1ccc(OCc2nnc(SCC(=O)Nc3cccc(C)c3)o2)c(OC)c1 is reported as 45.9 µM (cell growth or viability, MTT; 72 h).
With NCCCCCCCNc1n[n+]([O-])c2ccccc2[n+]1[O-] the IC50 was greater than 90 µM (cytotoxicity, MTT; 24 h, normoxia).
The IC50 of C#CCN1c2cccnc2Sc2cccnc21 is reported as less than 5 µg/mL (cell growth or viability, WST-1; 72 h).
With N#Cc1c(Nc2ccccc2)n2nc(NC(=O)c3ccccc3)sc2nc1=O the IC50 was 12.7 µM (cell growth or viability, MTT; 48 h).
The IC50 of Cc1ccc(NC(=O)NNC(=O)CSc2nc3ccccc3c(=O)n2-c2ccc(C)cc2)cc1 is reported as 66 µM (cell growth or viability, MTT).
O=S(=O)(Sc1cccc(Cl)c1)c1cccc(Cl)c1 gave an IC50 of greater than 10 µM (cell growth, sulforhodamine B).
Cn1nnc2c(C(N)=O)ncn2c1=O gave an IC50 of 126 µM (cell proliferation, MTS; 72 h, with: 10 µM HNL).
For N#Cc1c(-c2ccc(Cl)cc2)c2c(=O)[nH]nnc2n(C2CCCCC2)c1=O, the IC50 was 1.31 µM (cell growth or viability, MTT).
For CC/C(=C(\c1ccccc1)c1ccc(OCCN(C)CCOCCOCCOc2ccc3[nH]cc(CCNC(C)=O)c3c2)cc1)c1ccccc1, the IC50 was 21.3 µM (cell survival, MTT; day 9, dosed days 2, 4, 7).
For N#CC(=Cc1ccc(Cl)cc1Cl)C(=O)Nc1nnc(NC(=O)c2ccccc2)s1, the IC50 was 5.51 µM (cell growth or viability, MTT; 48 h).
O=C(CSc1nc2ccccc2c(=O)n1-c1ccc(Cl)cc1)NNC(=O)Nc1ccc(C(F)(F)F)cc1Cl has an IC50 of 26.3 µM (cell growth or viability, MTT).
Cc1nc2ccccc2nc1SCC(=O)Nc1ccc(C(=O)Nc2cccc(Cl)c2)cc1 has an IC50 of 5.8 µM (cell growth or viability, MTT).
For O=S(=O)(c1ccc2nc(Cl)c(Cl)nc2c1)N1CCCC1, the IC50 was 31 ± 2.1 µM (cell growth; 24 h).
With COc1ccc(/C=C\c2cc(OC)c(OC)c(OC)c2)cc1O the IC50 was 0.039 µM (cell growth or viability, SRB).
For Cc1ccc(-n2c(SCC(=O)NNC(=O)NCc3ccccc3)nc3ccccc3c2=O)cc1, the IC50 was 9.43 µM (cell growth or viability, MTT).
For [O-][n+]1nc(NCCCCCNc2n[n+]([O-])c3ccccc3[n+]2[O-])nc2ccccc21, the IC50 was greater than 30 µM (cytotoxicity, MTT; 24 h, normoxia).
With O=C(N/C(=C/c1ccc(Cl)cc1)c1nc2ccccc2c(=O)o1)c1ccccc1 the IC50 was 20.4 µM (cell growth or viability, MTT; 48 h).
NCCCCCCCCNc1n[n+]([O-])c2ccccc2[n+]1[O-] gave an IC50 of 74.3 ± 21.1 µM (cytotoxicity, MTT; 10% FBS medium; 6 h + 18 h, hypoxia 3% O2).
N#Cc1c(-c2ccc(Cl)cc2)c(C(N)=O)c(N)n(C2CCCCC2)c1=O has an IC50 of 16.9 µM (cell growth or viability, MTT).
